{"data": "Values quoted from earlier work, collected from citations in different studies", "note": "Compare with care: the assays were run in different laboratories. ± marks the error that the study gave. Ends that are not written are not given here.", "chain of UniProt P0AES9 (whole entry, looked up)": "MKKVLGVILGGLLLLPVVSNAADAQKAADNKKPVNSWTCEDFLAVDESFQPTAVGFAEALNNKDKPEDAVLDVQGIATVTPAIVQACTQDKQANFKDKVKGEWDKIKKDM", "chain of UniProt P56450 (whole entry, looked up)": "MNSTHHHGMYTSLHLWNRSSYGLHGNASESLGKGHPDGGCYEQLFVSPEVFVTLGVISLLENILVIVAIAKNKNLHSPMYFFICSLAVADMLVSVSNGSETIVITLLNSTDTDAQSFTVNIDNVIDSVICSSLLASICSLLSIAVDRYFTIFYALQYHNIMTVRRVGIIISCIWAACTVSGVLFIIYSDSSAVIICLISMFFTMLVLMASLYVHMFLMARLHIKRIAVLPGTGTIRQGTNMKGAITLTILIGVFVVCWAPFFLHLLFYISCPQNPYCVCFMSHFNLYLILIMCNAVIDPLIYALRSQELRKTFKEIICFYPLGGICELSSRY", "chain of UniProt P31749 (whole entry, looked up)": "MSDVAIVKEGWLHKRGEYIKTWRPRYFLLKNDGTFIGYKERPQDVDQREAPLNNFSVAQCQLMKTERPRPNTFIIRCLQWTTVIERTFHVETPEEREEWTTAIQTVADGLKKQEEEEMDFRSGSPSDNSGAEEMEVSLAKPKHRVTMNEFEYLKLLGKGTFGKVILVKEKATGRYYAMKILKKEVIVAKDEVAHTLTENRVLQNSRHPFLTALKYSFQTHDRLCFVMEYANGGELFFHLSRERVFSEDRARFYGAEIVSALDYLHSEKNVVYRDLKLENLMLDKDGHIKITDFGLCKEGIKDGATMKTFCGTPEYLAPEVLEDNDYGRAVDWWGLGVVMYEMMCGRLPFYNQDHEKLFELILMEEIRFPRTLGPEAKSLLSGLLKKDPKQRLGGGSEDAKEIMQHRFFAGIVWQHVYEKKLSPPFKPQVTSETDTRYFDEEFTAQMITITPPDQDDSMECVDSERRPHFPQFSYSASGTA", "chain of UniProt P00698 (whole entry, looked up)": "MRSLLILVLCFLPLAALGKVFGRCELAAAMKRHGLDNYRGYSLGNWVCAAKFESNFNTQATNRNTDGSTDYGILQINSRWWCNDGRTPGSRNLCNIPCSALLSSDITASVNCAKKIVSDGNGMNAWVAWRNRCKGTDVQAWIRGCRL", "chain of UniProt P33033 (whole entry, looked up)": "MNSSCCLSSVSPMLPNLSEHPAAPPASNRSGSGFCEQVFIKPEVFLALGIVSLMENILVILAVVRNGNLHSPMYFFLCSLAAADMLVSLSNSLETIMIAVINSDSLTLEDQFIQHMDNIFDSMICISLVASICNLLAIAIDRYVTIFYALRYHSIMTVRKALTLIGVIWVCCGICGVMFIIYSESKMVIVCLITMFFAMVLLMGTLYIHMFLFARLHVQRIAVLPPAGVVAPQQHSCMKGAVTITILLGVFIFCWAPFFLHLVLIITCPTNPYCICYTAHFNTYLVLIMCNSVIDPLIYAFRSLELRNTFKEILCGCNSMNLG", "chain of UniProt P0ACD4 (whole entry, looked up)": "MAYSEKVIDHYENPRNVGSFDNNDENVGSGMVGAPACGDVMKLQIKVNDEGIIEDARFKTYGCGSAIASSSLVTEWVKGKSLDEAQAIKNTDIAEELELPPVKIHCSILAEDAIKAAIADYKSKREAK"}
{"Molecule": "SSRRCVRLHESCLGQQVPCCDPCATCYCRFFNAFCYCRKLGTAMNPCSRT (agouti-related protein; ends and bridges not checked; cysteine pairing not given here; sequence looked up)", "target or system": "Melanocortin receptor 4 (Mus musculus, UniProt P56450)", "scale": "relative to: mouse MC4R over mouse MC3R", "quantity": "potency ratio", "result": "~10 fold"}
{"Molecule": "FALISFLLL (sequence looked up)", "target or system": "H-2 class I histocompatibility antigen, D-B alpha chain, 14 (H2-D1, Mus musculus, UniProt P01899)", "assay": "binding, competitor", "system": "peptide", "conditions": "purified MHC class I D allele, added: radiolabelled standard peptide", "quantity": "IC50", "result": "1.9 nM"}
{"Molecule": "hdeA mature protein (Escherichia coli, UniProt P0AES9)", "assay": "NMR, measured: Asp20", "conditions": "298 K, numbering of the source", "quantity": "pKa", "result": 3.66}
{"Molecule": "RXVF (N-acetyl, Abz residue, C-benzyl)", "target or system": "RAC-alpha serine/threonine-protein kinase (AKT1, Homo sapiens, UniProt P31749)", "assay": "inhibitor", "quantity": "IC50", "result": "119000 ± 36000 nM"}
{"Molecule": "LYZ (Gallus gallus, UniProt P00698)", "assay": "NMR, measured: Asp87", "conditions": "NaCl 100 mM, numbering of the source", "quantity": "pKa", "result": 2.2}
{"Molecule": "IscU apo (Escherichia coli, UniProt P0ACD4)", "assay": "NMR, measured: His105", "conditions": "NaCl 150 mM, D-state, apo", "quantity": "pKa", "result": 6.5}
{"Molecule": "insulin glulisine", "assay": "measured: total insulin", "system": "human", "conditions": "subcutaneous abdomen, 0.2 U/kg, dose-adjusted from 0.1 U/kg", "quantity": "Cmax", "result": "1 nM"}
{"Molecule": "CVRLHESCLGQQVPCCDPCATCYCRFFNAFCYCR (agouti-related protein (87–120); sequence looked up)", "target or system": "Melanocortin receptor 3 (Mus musculus, UniProt P33033)", "assay": "antagonist, cAMP", "system": "peptide", "quantity": "Ki", "result": "7.9 nM"}
{"note": "For quick reference, copied from above:"}
{"Molecule": "IscU apo (Escherichia coli, UniProt P0ACD4)", "assay": "NMR, measured: His105", "conditions": "NaCl 150 mM, D-state, apo", "quantity": "pKa", "result": 6.5}
